Published values of several laboratories.
Compare with care: the assays were run in different laboratories. Values joined by “and” are separate records of one study, mostly repeats; a detail may differ. ± marks the error that the study gave.

For `C[C@H](NC(=O)COC(=O)[C@H](C)NC(=O)CO)C(=O)O`, “depolymerization rate constant” read 3.96 h⁻¹ (water; pH 8, 25 °C).
The LDL cholesterol of `COc1cc2c(cc1OC)-c1cc3ccc(OC)c(OC)c3c[n+]1CC2` is reported as 58.8 ± 2.41 mg/dL (rat, STZ-induced diabetic, serum; oral, 12 mg/kg, day 28).
The body temperature of `CC12CC(O)C3CC1(OC1OC(CO)C(O)C(O)C1O)C3(COC(=O)c1ccccc1)C(=O)O2` (stereo not shown) is reported as 35.2 ± 0.51 °C (mice, reserpine-induced depression; 14 mg/kg, 7 days, 4 h after reserpine).
`CC(C)n1cnc(-c2ccc(F)cc2)c1-c1ncc(C(=O)Nc2ccc(N3CCN(C)CC3)cc2)[nH]1`: “change in FVC” 98.4 mL (IPF patients; 60 mg once daily, 12 weeks, mean; relative to: baseline).
`CC[C@H]1[C@@H](O)[C@@H]2[C@H](CC[C@]3(C)[C@@H]([C@H](C)CCOS(=O)(=O)[O-])CC[C@@H]23)[C@@]2(C)CC[C@@H](O)C[C@@H]12.[Na+]` has an inflammation score of 3 (histology; ob/ob NASH mouse model, liver; oral, 3 mg/kg once daily, before treatment, baseline of 8 week study, scale 0 to 3; direction not given).
`CN1CCC[C@]1(C)/C=C/S(=O)(=O)NC(=O)Nc1c2c(cc3c1CCC3)CCC2` has an inhibition of > 90% (IL-1β release, ex vivo whole blood; human, whole blood; oral, 50 mg single dose, 12 h, together with: LPS and ATP).
`COc1ccc(OC)c(C(=Cc2ccc(O)c(OC)c2)C(=O)NCCc2ccc(O)cc2)c1` — result for “dopamine and metabolite level”: “increased” (item: DA, DOPAC, HVA; C57BL mice, MPTP/p Parkinson model, striatum; 75 mg/kg, 8 weeks; relative to: MPTP/p vehicle).
With `COC(=O)C1OC(Oc2c(-c3ccccc3)oc3cc(O)c(O)c(O)c3c2=O)C(O)C(O)C1O` (stereo not shown) the serum concentration was 134 pg/mL (ELISA, item: IL-6; Balb/c mouse, serum; oral, 5 mg/kg, together with: LPS).
For `COC1C=CC=C(C)C(=O)NC2=CC(=O)C(NCCN(C)C)=C(CC(C)CC(OC)C(O)C(C)C=C(C)C1OC(N)=O)C2=O` (stereo not shown), pathway activity read “inhibited” (GSEA, item: MYC, E2F, NOTCH; mouse, Rh30 xenograft; dose not given).
`CC(C)=CCCC(C)=CCc1cc(-c2coc3cc(OC4OC(C(=O)O)C(O)C(O)C4O)ccc3c2=O)ccc1O` (stereo not shown) gave a Vmax of 6120 ± 531 pmol/min/mg (glucuronidation, substrate; mouse liver microsomes).
The spreading cells of `CC(C)[C@H](NC(=O)CN)C(=O)N[C@@H](CCCCN)C(=O)NCC(=O)N[C@@H](CC(=O)O)C(=O)N[C@@H](CCCCN)C(=O)NCC(=O)N[C@@H](CC(N)=O)C(=O)N1CCC[C@H]1C(=O)NCC(=O)N[C@@H](Cc1c[nH]c2ccccc12)C(=O)N1CCC[C@H]1C(=O)NCC(=O)N[C@@H](C)C(=O)N1CCC[C@H]1C(=O)O` is reported as 70% (K1735 M4 melanoma, mouse; 100 µg/mL coating, peptide-coated plates).
Under “maximum IOP reduction”, `NC[C@@H](C(=O)Nc1ccc(-c2cn[nH]c2)cc1)c1ccccc1` is recorded as 5.3 ± 0.6 mm Hg (NZW rabbit, magnetic bead ocular hypertension; topical, 0.03 %, 30 h; relative to: baseline).
`CCCCCCCCCn1cc(C(N)(CO)CO)nn1`: “proinflammatory mRNA levels” “decreased” (APP/PS1 mouse; dose not given; relative to: PBS).
`COc1c2c(cc3oc(C)cc(=O)c13)O[C@H](C(C)(C)O[C@@H]1O[C@H](CO)[C@@H](O)[C@H](O)[C@H]1O)C2` — result for “hot plate latency”: 8.63 ± 2.53 s (analgesia; mouse; oral, 4 mg/kg, 1 h).
`CC(=O)[O-].O.O.O.O.[Mn+2].[O-]c1ccc(Br)cc1C=NCCN1CCOCC1` — result for “ferric reducing power”: 55.5% (FRAP; 240 µM).
`CCCCCCCCCCCCCCCC(=O)NCCCC[C@H](N)C(=O)N[C@@H](CC(=O)O)C(=O)N[C@H](C(=O)N[C@@H](Cc1c[nH]cn1)C(=O)N[C@@H](Cc1ccccc1)C(=O)N[C@@H](CCCNC(=N)N)C(=O)N[C@H](C(=O)N[C@@H](Cc1ccccc1)C(=O)N[C@@H](CCCNC(=N)N)C(=O)N[C@@H](CO)C(=O)N[C@@H](Cc1c[nH]cn1)C(=O)N[C@@H](CO)C(=O)N[C@@H](CC(=O)O)C(=O)N[C@@H](Cc1ccc(O)cc1)C(=O)N[C@@H](CCCNC(=N)N)C(=O)N[C@@H](CCCNC(=N)N)C(=O)N[C@H](C(=O)O)[C@@H](C)CC)[C@@H](C)O)[C@@H](C)O` has a serum ALT of 230 ± 32.7 IU/L (C57BL/6J mouse, MCD diet; intraperitoneal, 0.6 nmol/g, 3 weeks, 3 times weekly).
`Cc1cc(O)c(C=O)c2c1C(=O)Oc1c(CO)c(O)c3c(c1O2)C(O)OC3=O` (stereo not shown) — result for “fasting plasma glucose”: 141 ± 7.9 mg/dL (streptozotocin-induced diabetic male rats, plasma; 10 mg/kg, 9 weeks).
`CSCC[C@H](NC(=O)[C@H](CO)NC(=O)[C@@H](N)CO)C(=O)N[C@@H](CCCCN)C(=O)N[C@@H](CC(C)C)C(=O)N[C@@H](CO)C(=O)N[C@@H](Cc1ccccc1)C(=O)N[C@@H](CCCNC(=N)N)C(=O)N[C@@H](C)C(=O)N[C@@H](CCCNC(=N)N)C(=O)N[C@@H](C)C(=O)N[C@@H](Cc1ccc(O)cc1)C(=O)NCC(=O)N[C@@H](Cc1ccccc1)C(=O)N[C@@H](CCCNC(=N)N)C(=O)NCC(=O)N1CCC[C@H]1C(=O)NCC(=O)N1CCC[C@H]1C(=O)N[C@@H](CCC(N)=O)C(=O)N[C@@H](CC(C)C)C(=O)O` gave a blood glucose of 143 ± 8.84 mg/dL (oral glucose tolerance test; DIO mouse; oral, 2 µg/g, 0 min, day 1, 8 h fast).
`CCc1nc(-c2ccc(-c3ccc(CCC(N)(CO)CO)cc3)cc2)co1` has a Vmax of 20.1 ± 3.6 pmol/min (phosphorylation; rat whole blood; 60 min, 37 °C, up to 100 µM).
`CC[C@H](C)[C@@H]1NC(=O)[C@H](Cc2ccc(O)cc2)NC(=O)[C@@H](N)CSSC[C@@H](C(=O)N2CCC[C@H]2C(=O)N[C@@H](CCCCNC(=O)COCCOCCNC(=O)COCCOCCNC(=O)CC[C@H](NC(=O)CC[C@H](NC(=O)CCCCCCCCCCCCCCCCC(=O)O)C(=O)O)C(=O)O)C(=O)NCC(N)=O)NC(=O)[C@H](CC(N)=O)NC(=O)[C@H](CCC(N)=O)NC1=O`: “body weight change” -13.2 ± 0.7% (C57BL/6 mice, diet-induced obese; subcutaneous, 2 µmol/kg daily, 14 days; relative to: vehicle).
Under “effect size d”, `CN(C)C(=O)c1ccnc(N2Cc3cn(Cc4ccc(F)cc4F)nc3C2)n1` is recorded as -0.09 (myelinated axon density, electron microscopy; mouse cuprizone diet, corpus callosum; unit not given; relative to: control-diet-fed mice).
`N#Cc1cnc2cc(OCC3CCNCC3)c(F)cc2c1Nc1cc(F)c(OCc2cccc(Cl)n2)cc1Cl`: BrdU incorporation “increased” (C57BL/6J mice, diet-induced MASH, partial hepatectomy, liver; dose not given, 72 h after hepatectomy).
For `CC(C)c1cnc(-c2cc(Cl)ccc2F)cc1Nc1ccncc1C(=O)NC(CO)CO`, the PSA decrease was 45.9% (human; 250 mg, together with: enzalutamide).
`CSCC[C@H](NC(=O)[C@H](CC(C)C)NC(=O)CNC(=O)[C@H](Cc1ccccc1)NC(=O)[C@H](Cc1ccccc1)NC(=O)[C@H](CCC(N)=O)NC(=O)[C@H](CCC(N)=O)NC(=O)[C@@H]1CCCN1C(=O)[C@H](CCCCN)NC(=O)[C@@H]1CCCN1C(=O)[C@@H](N)CCCNC(=N)N)C(N)=O` has a limb salvage of 21.4% (diabetic mice, hindlimb ischemia; intravenous, 2.5 nmol/kg immediately and at day 6, 28 days).
`CC(=O)N[C@@H](CC(N)=O)C(=O)NCC(=O)N[C@@H](C)C(=O)N[C@@H](C)C(N)=O`: “rate constant succinimide to α-Asp” 0.068 h⁻¹ (1H NMR; sodium phosphate buffer 50 mM; pH 5.1, 55 °C).
`NC(=O)[C@@H](CCCCNC(=O)CNC(=O)CCC(=O)NCCc1c[nH]cn1)NC(=O)[C@@H](CCC(=O)O)NC(=O)[C@@H](CCCCNC(=O)CNC(=O)CCC(=O)NCCc1c[nH]cn1)NC(=O)[C@@H](Cc1ccc(O)cc1)NC(=O)CN1CCN(CC(=O)O)CCN(CC(=O)O)CCN(CC(=O)O)CC1` [gallium-68 labelled] has a tumour-to-background ratio of 38.2 (PET/CT; nude BALB/c mouse, LS174T xenograft; dose not given, together with: TF2 6.0 nmol pretargeting; relative to: abdomen).
`CCCCCCCCCCCCCCCC(=O)N[C@@H](CCC(=O)NCCCC[C@H](NC(=O)[C@H](CC(=O)O)NC(=O)[C@H](CO)NC(=O)[C@@H](NC(=O)[C@H](Cc1ccccc1)NC(=O)[C@@H](NC(=O)CNC(=O)[C@H](CCC(N)=O)NC(=O)[C@H](CO)NC(=O)[C@@H](N)Cc1c[nH]cn1)[C@@H](C)O)[C@@H](C)O)C(=O)N[C@@H](CO)C(=O)N[C@@H](CCC(=O)O)C(=O)N[C@@H](Cc1ccc(O)cc1)C(=O)N[C@@H](CC(C)C)C(=O)N[C@@H](CC(=O)O)C(=O)N[C@@H](CO)C(=O)N[C@@H](CCC(=O)O)C(=O)N[C@@H](CCCNC(=N)N)C(=O)N[C@@H](C)C(=O)N[C@@H](CCCNC(=N)N)C(=O)N[C@@H](CC(=O)O)C(=O)N[C@@H](Cc1ccccc1)C(=O)N[C@H](C(=O)N[C@@H](C)C(=O)N[C@@H](Cc1c[nH]c2ccccc12)C(=O)N[C@@H](CC(C)C)C(=O)N[C@@H](CCC(=O)O)C(=O)N[C@@H](C)C(=O)NCC(=O)NCC(=O)O)C(C)C)C(=O)O` gave a food intake of ~31% (diet-induced obese mouse; subcutaneous, 10 nmol/kg single dose, 0-12 h; relative to: vehicle).
For `O=C(O)C1OC(Oc2cccc(-c3nc(N4CCOCC4)c4oc5ncccc5c4n3)c2)C(O)C(O)C1O` (stereo not shown), the Vmax was 41.2 ± 1.74 pmol/min/mg (glucuronide formation; human liver microsomes).
Under “log2 fold change”, `C=C(c1ccc(C(=O)O)c(F)c1)c1cc2c(cc1C)C(C)(C)C=CC2(C)C` is recorded as -0.13 (RNA sequencing, item: Inmt mRNA; rat, brain; dose not given, 24 h, single dose; relative to: vehicle).
For `CSCCNc1nc(SCCC(F)(F)F)nc2c1ncn2[C@@H]1O[C@H](COP(=O)(O)OP(=O)(O)C(Cl)(Cl)P(=O)(O)O)[C@@H](O)[C@H]1O`, “patients with high reactivity” read 55% (ADP-induced platelet aggregation, LTA, >59% aggregation; human patients, platelet-rich plasma; dose not given, 1 h, together with: ADP 20 µM).
Under “log2 fold change”, `C=C(c1ncc(C(=O)O)cn1)c1cc2c(cc1C)C(C)(C)CCC2(C)C` is recorded as -1.35 (RNA sequencing, item: Scd1; rat, brain; dose not given, 24 h; relative to: vehicle).
`CCCCCCCOC(=O)Cc1c(C)n(C(=O)c2ccc(Cl)cc2)c2ccc(OC)cc12` — result for “latency of nociceptive response”: 16.4 ± 0.74 s (hot plate test; BALB/c mice; 75 mg/kg, 60 min).
The blood glucose of `COc1ccc(C2CC(c3ccc(C)cc3)=Nc3ccccc3S2)cc1OC` (stereo not shown) is reported as 225 mg/dL (Wistar rat, STZ-induced diabetes; oral, 20 mg/kg once daily, day 7).
`CC(C)OC(=O)[C@H](CO)NCc1cc(Cl)c(OCc2cccc(-c3ccccc3)c2Br)cc1OCc1cccnc1`: “tumour-infiltrating CD4+ and CD8+ T cells” “increased” (flow cytometry; humanized PD-1 C57BL/6 mice, hPD-L1 MC-38 tumour, tumour; dose not given).
Under “latency of nociceptive response”, `COc1ccc2c(c1)c(CC(=O)OCC(=O)c1ccccc1)c(C)n2C(=O)c1ccc(Cl)cc1` is recorded as 15.7 ± 0.35 s (hot plate test; BALB/c mice; 100 mg/kg, 60 min).
`COc1ccc(C2NC(=O)NC(C)=C2C(C)=O)cc1` (stereo not shown) — result for “antioxidant potency ratio”: ~3.8 fold and ~3.7 fold (FRAP; relative to: gallic acid).
Under “serum LDH level”, `O=C1/C(=C/c2ccc(O)c(O)c2)Oc2c1c(O)cc(O)c2-c1ccc(O)c(O)c1` is recorded as “decreased” (mouse, CCl4-induced liver injury; intragastric, 200 or 100 mg/kg, 10 days pretreatment).
